Experimental data of several laboratories.
Numbers after ± are the reported error.

The chains behind the UniProt entries cited, without tags or fusion partners.
UniProt P10635, whole entry: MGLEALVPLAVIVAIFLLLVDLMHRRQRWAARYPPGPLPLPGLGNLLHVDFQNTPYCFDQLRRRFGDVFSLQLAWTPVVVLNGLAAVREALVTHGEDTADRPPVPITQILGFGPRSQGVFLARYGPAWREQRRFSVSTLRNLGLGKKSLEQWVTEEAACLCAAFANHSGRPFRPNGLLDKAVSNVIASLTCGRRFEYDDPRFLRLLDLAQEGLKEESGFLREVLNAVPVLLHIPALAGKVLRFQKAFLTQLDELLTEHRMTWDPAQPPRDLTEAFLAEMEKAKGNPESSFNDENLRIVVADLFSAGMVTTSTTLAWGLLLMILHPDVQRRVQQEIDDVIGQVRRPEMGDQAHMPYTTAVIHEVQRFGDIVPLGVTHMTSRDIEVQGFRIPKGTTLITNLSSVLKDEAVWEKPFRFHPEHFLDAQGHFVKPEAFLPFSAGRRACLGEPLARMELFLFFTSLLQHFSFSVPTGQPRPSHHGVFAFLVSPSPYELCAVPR
UniProt P33261, whole entry: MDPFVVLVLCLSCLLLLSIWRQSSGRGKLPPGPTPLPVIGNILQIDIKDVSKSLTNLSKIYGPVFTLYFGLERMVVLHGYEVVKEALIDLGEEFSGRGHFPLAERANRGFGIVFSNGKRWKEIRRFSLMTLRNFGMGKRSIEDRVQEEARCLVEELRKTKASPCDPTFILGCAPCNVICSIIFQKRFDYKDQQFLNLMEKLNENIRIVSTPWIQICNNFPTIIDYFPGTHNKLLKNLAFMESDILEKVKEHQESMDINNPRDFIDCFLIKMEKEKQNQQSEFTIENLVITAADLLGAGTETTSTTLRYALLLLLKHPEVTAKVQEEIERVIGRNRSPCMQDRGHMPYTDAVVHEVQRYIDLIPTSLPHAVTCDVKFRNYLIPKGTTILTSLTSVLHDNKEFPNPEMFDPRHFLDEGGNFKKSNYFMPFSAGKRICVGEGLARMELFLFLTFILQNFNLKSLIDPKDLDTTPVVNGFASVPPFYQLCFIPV

COc1ccc(-c2nc(C)c(CSc3ccc(OCC(=O)O)c(C)c3)s2)cc1F — CC50 (HEK293T; 18 h): > 100 µM
COC(=O)[C@@H]1C(C=Nc2cc(Cl)ccc2O)=Cc2cc3c(cc2[C@H]1c1cc(OC)c(OC)c(OC)c1)OCO3 — CC50 (mouse splenocytes uninfected; Alamar Blue; 48 h): 79.3 ± 7.9 µM
Cc1cc(SCc2sc(-c3ccc(C(F)(F)F)nc3)nc2C)ccc1OCC(=O)O — CC50 (HEK293T; 18 h): > 100 µM
COc1cc([C@@H]2c3cc4c(cc3[C@@H](CC(C)(C)O)[C@H]3COC(=O)[C@H]23)OCO4)cc(OC)c1OC — CC50 (HepG2; Alamar Blue; 48 h): > 100 µM
COc1ccc(CC(=O)OCc2ccc(-n3cccn3)cc2)cc1F — inhibition (Cytochrome P450 2D6 (CYP2D6, Homo sapiens, UniProt P10635); inhibitor; 10 µM): 4.3%
CCCSc1nc(N[C@@H]2C[C@H]2c2ccc(F)c(F)c2)c2nnn([C@@H]3C[C@H](O)[C@@H](O)[C@H]3O)c2n1 — AUC (rat, female, plasma; oral, 60 mg/kg/day ticagrelor, week 26): 30.5 µM·h
Cc1n[nH]c(C)c1CCOC(=O)c1cccc2c1oc(=O)n2C — inhibition (CYP2C19 (Homo sapiens, UniProt P33261); inhibitor; 10 µM): 6.3%
Nc1ncc(-c2ccc3ncnc(N4CCc5cc(F)c(Cl)cc54)c3c2)cn1 — AUC(0-t) (CD1 mouse, plasma; intraperitoneal, 50 mg/kg): 39500 ng·h/mL
Cc1nc(-c2ccc(C(F)(F)F)c(F)c2)sc1CSc1ccc(OCC(=O)O)cc1 — CC50 (HEK293T; 18 h): > 100 µM
CC(C)n1nnc(-c2cc(O)cc(Nc3ncnn4ccc(CN5CCC(N)CC5)c34)c2)n1 — total plasma concentration (mouse, plasma; subcutaneous, 10 mg/kg, 90 min): 2.5 ± 2.1 µM
Cc1cc(SCc2sc(-c3cccc4[nH]ncc34)nc2C)ccc1OCC(=O)O — CC50 (HEK293T; 18 h): > 100 µM
COC(=O)[C@@H]1C(c2nc3ccccc3o2)=Cc2cc3c(cc2[C@H]1c1cc(OC)c(OC)c(OC)c1)OCO3 — CC50 (mouse splenocytes uninfected; Alamar Blue; 48 h): > 100 µM
